Measured values collected from several papers.
Each line is one published result; not all experiments were run side by side.
Organism: Mycobacterium tuberculosis

CC(C)c1ccc(-c2ccnc(CNC3C4CC5CC(C4)CC3C5)c2)cc1 (stereo not shown) has an MIC of 1 to 2 µg/mL (microbial growth, resazurin; H37RV).
Clc1ccc(NCc2ccc(Oc3ccccn3)cc2)cc1 gave an MIC of 80 µM (H37Rv, 7H9/ADC/Tween medium; 2 weeks).
With O=C(OCc1ccccc1)c1csc(-c2ccccc2)n1 the MIC was 4 to 9.8 µM (microplate alamar blue; H37Rv (ATCC 27294), 7H12 medium; replicating bacteria, range).
For Fc1ccccc1NCc1ccc(Oc2ccccn2)cc1, the MIC was 43 µM (H37Rv, GAST-Fe medium; 2 weeks, pH 6.6).
The MIC of C=CCCCCCCCCC(=O)NS(=O)(=O)OC[C@H]1O[C@@H](n2cnc3c(N)ncnc32)[C@H](O)[C@@H]1O is reported as 0.39 to 0.78 µM (broth microdilution; H37Rv, GAST medium; MIC at >99% growth inhibition).
With CCOC(=O)COc1ccc(-c2nc3cc(NC(=O)[C@H](C)Oc4cccc(Cl)c4Cl)ccc3o2)cc1 the MIC was 0.2 µM (microbial growth; ATCC27294 H37RV; 7 days).
Cc1ccccc1NCc1ccc(Oc2ccccn2)cc1 has an MIC of 43 µM (H37Rv, GAST-Fe medium; 2 weeks, pH 6.6).
Nc1ncnc2c1ncn2[C@@H]1O[C@H](COS(=O)(=O)NC(=O)CCCCCCCCCCOc2ccc(Cl)cc2)[C@@H](O)[C@H]1O gave an MIC of 6.25 to 12.5 µM (broth microdilution; H37Rv, GAST medium; MIC at >99% growth inhibition).
The MIC of O=C(OCc1ccccc1)c1coc(-c2ccccc2)n1 is reported as 6 µM (microplate alamar blue; H37Rv ATCC 27294; GAS medium, replicating).
The MIC of COc1cccc(OCCCCCCCCCCC(=O)NS(=O)(=O)OC[C@H]2O[C@@H](n3cnc4c(N)ncnc43)[C@H](O)[C@@H]2O)c1 is reported as 25 to 50 µM (broth microdilution; H37Rv, GAST medium; MIC at >99% growth inhibition).
C[C@H](Oc1cccc(Cl)c1Cl)C(=O)Nc1ccc2oc(-c3ccc(C#N)cc3)nc2c1 gave an MIC of ≤ 5 µM (H37Rv ATCC 27294, GAST/Fe and 7H9/ADC/Tween; 168 h).
COc1ccc(-c2ccc(C(=O)OCc3ccccc3)cn2)cc1 has an MIC of 5.8 to 11.9 µM (microplate alamar blue; H37Rv (ATCC 27294), 7H12 medium; replicating bacteria, range).
With Cc1cccc(NCc2ccc(Oc3ccccn3)cc2)c1 the MIC was > 100 µM (H37Rv, 7H9/ADC/Tween medium; 1 weeks).
With CCCCCCc1ccc(Oc2ccccc2F)c(O)c1 the MIC was 1.56 µg/mL (microbial growth, resazurin).
CCOC(=O)COc1cccc(-c2nc3cc(NC(=O)[C@H](C)Oc4cccc(Cl)c4Cl)ccc3o2)c1 has an MIC of ≤ 5 µM (H37Rv ATCC 27294, GAST/Fe and 7H9/ADC/Tween; 168 h).
Nc1ncnc2c1ncn2[C@@H]1O[C@H](COS(=O)(=O)NC(=O)CCCCCCCCCCO)[C@@H](O)[C@H]1O gave an MIC of 3.13 to 6.25 µM (broth microdilution; H37Rv, GAST medium; MIC at >99% growth inhibition).
With COc1ccc(-c2nc3cc(NC(=O)[C@H](C)Oc4cccc(F)c4F)ccc3o2)cc1 the MIC was ≤ 5 µM (H37Rv ATCC 27294, GAST/Fe and 7H9/ADC/Tween; 168 h).
O=C(OCc1ccccc1)[C@@H]1COC(c2ccccc2)=N1 has an MIC of 5 µM (microplate alamar blue; H37Rv ATCC 27294; GAS medium, replicating).
For C[C@H](Nc1cccc(F)c1F)C(=O)Nc1ccc2oc(-c3ccc(C#N)cc3)nc2c1, the MIC was ≤ 5 µM (H37Rv ATCC 27294, GAST/Fe and 7H9/ADC/Tween; 168 h).
For CC(C)c1ccc(-c2ccnc(CN3CCC4(CC3)OCCCO4)c2)cc1, the MIC was 1 to 2 µg/mL (microbial growth, resazurin; H37RV).
The MIC of CCCCCCCCC/C=C/C(=O)NS(=O)(=O)OC[C@H]1O[C@@H](n2cnc3c(N)ncnc32)[C@H](O)[C@@H]1O is reported as 50 to 100 µM (broth microdilution; H37Rv, GAST medium; MIC at >99% growth inhibition).
O=[N+]([O-])c1cn2c(n1)OC[C@@H](NCc1ccc(OC(F)(F)F)cc1O)C2 gave an MIC of < 0.1 µM (growth; replicating; aerobic).
The MIC of C#CCOC(=O)COc1ccc(-c2nc3cc(NC(=O)[C@H](C)Oc4cccc(Cl)c4Cl)ccc3o2)cc1 is reported as < 1 µM (H37Rv ATCC 27294, GAST/Fe and 7H9/ADC/Tween; 168 h).
For Cc1cc2nc(C)c(C(=O)OCc3ccccc3)n2c(C)n1, the MIC was 5 to 5.9 µM (microplate alamar blue; H37Rv (ATCC 27294), 7H12 medium; replicating bacteria, range).
For CCCCCC/C=C/CCCC(=O)NS(=O)(=O)OC[C@H]1O[C@@H](n2cnc3c(N)ncnc32)[C@H](O)[C@@H]1O, the MIC was 50 to 100 µM (broth microdilution; H37Rv, GAST medium; MIC at >99% growth inhibition).
The MIC of Cc1ccn2c(C(=O)NCc3ccccc3)c(-c3ccccc3)nc2c1 is reported as 0.5 to 0.7 µM (microplate alamar blue; H37Rv (ATCC 27294), GAS medium; replicating bacteria, range).
Oc1c(Cl)cc(Cl)cc1Sc1cc(Cl)cc(Cl)c1O has an MIC of 9.9 µg/mL (microbial growth; H37RV; 10 days).
The MIC of COc1ccc(NCc2ccc(Oc3ccccn3)cc2)cc1 is reported as 41 µM (H37Rv, 7H9/ADC/Tween medium; 1 weeks).
With CC(C)c1ccc(-c2ccnc(CNC3CCCCCC3)c2)cc1 the MIC was 1 to 2 µg/mL (microbial growth, resazurin; H37RV).
The MIC of Fc1ccc(NCc2ccc(Oc3ccccn3)cc2)cc1 is reported as 20 to 40 µM (H37Rv, GAST-Fe medium; 2 weeks, pH 6.6).
Cc1ccc(-c2ccc(-c3ccnc(CN4CCC5(CCCC5)CC4)c3)cc2)cc1 gave an MIC of 0.125 to 0.25 µg/mL (microbial growth, resazurin; H37RV).
The MIC of O=C(OCc1ccccc1)c1cc(-c2ccccc2)on1 is reported as 1.1 to 2.9 µM (microplate alamar blue; H37Rv (ATCC 27294), GAS medium; replicating bacteria, range).
The MIC of CC(C)c1ccc(-c2ccnc(CNC34CC5CC(CC(C5)C3)C4)c2)cc1 is reported as 1 to 2 µg/mL (microbial growth, resazurin; H37RV).
For CCCCCCCCCC[C@@H](C)C(=O)NS(=O)(=O)OC[C@H]1O[C@@H](n2cnc3c(N)ncnc32)[C@H](O)[C@@H]1O, the MIC was 12.5 to 25 µM (broth microdilution; H37Rv, GAST medium; MIC at >99% growth inhibition).
For Clc1ccccc1NCc1ccc(Oc2ccccn2)cc1, the MIC was 20 to 40 µM (H37Rv, GAST-Fe medium; 2 weeks, pH 6.6).
For CC1CCN(Cc2cc(-c3ccc(C(F)(F)F)cc3)ccn2)CC1, the MIC was 4 to 8 µg/mL (microbial growth, resazurin; H37RV).
c1ccc(NCc2ccc(Oc3ccccn3)cc2)cc1 gave an MIC of 20 to 40 µM (H37Rv, GAST-Fe medium; 2 weeks, pH 6.6).
CO[C@H]1/C=C/O[C@@]2(C)Oc3c(C)c(O)c4c(O)c(c(/C=N/N5CCN(C)CC5)c(O)c4c3C2=O)NC(=O)/C(C)=C\C=C\[C@H](C)[C@H](O)[C@@H](C)[C@@H](O)[C@@H](C)[C@H](OC(C)=O)[C@@H]1C has an MIC of 0.03 to 0.05 µM (microplate alamar blue; H37Rv (ATCC 27294), 7H12 medium; replicating bacteria, range).
With CCCCCCCC(=O)NS(=O)(=O)OC[C@H]1O[C@@H](n2cnc3c(N)ncnc32)[C@H](O)[C@@H]1O the MIC was 12.5 to 25 µM (broth microdilution; H37Rv, GAST medium; MIC at >99% growth inhibition).
C[C@H](Nc1cccc(Cl)c1Cl)C(=O)Nc1ccc2oc(-c3ccc(C#N)cc3)nc2c1 has an MIC of ≤ 5 µM (H37Rv ATCC 27294, GAST/Fe and 7H9/ADC/Tween; 168 h).

Excerpt of the above:
COc1ccc(-c2ccc(C(=O)OCc3ccccc3)cn2)cc1 has an MIC of 5.8 to 11.9 µM (microplate alamar blue; H37Rv (ATCC 27294), 7H12 medium; replicating bacteria, range).
The MIC of COc1cccc(OCCCCCCCCCCC(=O)NS(=O)(=O)OC[C@H]2O[C@@H](n3cnc4c(N)ncnc43)[C@H](O)[C@@H]2O)c1 is reported as 25 to 50 µM (broth microdilution; H37Rv, GAST medium; MIC at >99% growth inhibition).
For Fc1ccccc1NCc1ccc(Oc2ccccn2)cc1, the MIC was 43 µM (H37Rv, GAST-Fe medium; 2 weeks, pH 6.6).
CC(C)c1ccc(-c2ccnc(CNC3C4CC5CC(C4)CC3C5)c2)cc1 (stereo not shown) has an MIC of 1 to 2 µg/mL (microbial growth, resazurin; H37RV).
C[C@H](Nc1cccc(Cl)c1Cl)C(=O)Nc1ccc2oc(-c3ccc(C#N)cc3)nc2c1 has an MIC of ≤ 5 µM (H37Rv ATCC 27294, GAST/Fe and 7H9/ADC/Tween; 168 h).
CCOC(=O)COc1cccc(-c2nc3cc(NC(=O)[C@H](C)Oc4cccc(Cl)c4Cl)ccc3o2)c1 has an MIC of ≤ 5 µM (H37Rv ATCC 27294, GAST/Fe and 7H9/ADC/Tween; 168 h).
With CCCCCCCC(=O)NS(=O)(=O)OC[C@H]1O[C@@H](n2cnc3c(N)ncnc32)[C@H](O)[C@@H]1O the MIC was 12.5 to 25 µM (broth microdilution; H37Rv, GAST medium; MIC at >99% growth inhibition).
